Experimental data gathered from unrelated publications.
Compare with care: the assays were run in different laboratories.
Organism: Klebsiella pneumoniae

CC1(C)[C@H](NC(=O)/C(=N\OC2(C(=O)O)CCCC2)c2csc(N)n2)C(=O)N1OS(=O)(=O)O — MIC (agar dilution; 09-20, NDM-1): 0.25 µg/mL
COc1ccc2ccc(O)c(/C=N/[C@H]3CCCC[C@H]3/N=C/c3ccccc3O)c2c1 — MIC (bacterial growth, broth microdilution; carbapenem-resistant clinical isolate): > 40 µM
N=C(N)NCCC[C@@H]1NC(=O)[C@H](CCCNC(=N)N)NC(=O)[C@H](CCCNC(=N)N)NC(=O)[C@@H](CCCNC(=N)N)NC(=O)[C@H](Cc2ccc3ccccc3c2)NC(=O)[C@H](Cc2ccc3ccccc3c2)NC(=O)[C@H](Cc2ccc3ccccc3c2)NC1=O — MIC (ATCC 700603, ESBL SHV-18): 64 µg/mL
C#CCNC(=O)C1(O/N=C(\C(=O)N[C@@H]2C(=O)N(OS(=O)(=O)O)C2(C)C)c2csc(N)n2)CC1 — MIC (agar dilution; 2146 NDM-1): 8 µg/mL
CC[C@H](C)[C@H](NC(=O)[C@@H](CCCNC(=N)N)NC(=O)[C@H](CCCNC(=N)N)NC(=O)[C@H](Cc1c[nH]c2ccccc12)NC(=O)[C@H](Cc1c[nH]c2ccccc12)NC(=O)[C@H](CCCNC(=N)N)NC(=O)[C@@H]1CCCN1C(=O)[C@H](CCCNC(=N)N)NC(=O)[C@@H]1CCCN1C(=O)[C@H](CC(C)C)NC(=O)[C@H](Cc1ccc(O)cc1)NC(=O)[C@@H]1CCCN1C(=O)[C@@H]1CCCN1C(=O)[C@H](CCCCN)NC(=O)[C@H](CC(=O)O)NC(=O)[C@@H](N)C(C)C)C(=O)N[C@@H](Cc1ccc(O)cc1)C(=O)N[C@@H](CC(N)=O)C(=O)N[C@H](CCCNC(=N)N)C(N)=O — MIC (broth microdilution; DSM 681; 18 h, 37 °C, 25% MHB2): 4 µg/mL
CN[C@@H]1[C@H](O)[C@H](NC)[C@H]2O[C@]3(O)[C@H](O[C@@H]2[C@H]1O)O[C@H](C)C[C@H]3NC(=O)Cc1ccc(Cl)cn1 — MIC (microbial growth, broth dilution; ATCC33495): > 200 µg/mL
CCCCCCCC(=O)N[C@@H](CCN)C(=O)N[C@H](C(=O)N[C@@H](CCN)C(=O)N[C@H]1CCNC(=O)[C@H]([C@@H](C)O)NC(=O)[C@H](CCN)NC(=O)[C@H](CCN)NC(=O)[C@H](CC(C)C)NC(=O)[C@@H](Cc2ccc(Br)cc2)NC(=O)[C@H](CCN)NC1=O)[C@@H](C)O — MIC (broth microdilution; ATCC 19606): < 0.125 µg/mL
CC(C)C[C@H](NC(=O)[C@H](CC(C)C)NC(=O)[C@H](CCCCN)NC(=O)[C@H](Cc1ccccc1)NC(=O)[C@@H](NC(=O)[C@H](CCCNC(=N)N)NC(=O)[C@H](CCCCN)NC(=O)[C@H](Cc1c[nH]c2ccccc12)NC(=O)[C@@H](NC(=O)[C@@H](N)CCCNC(=N)N)C(C)C)C(C)C)C(=O)N[C@@H](CCCCN)C(=O)N[C@@H](CCCNC(=N)N)C(=O)N[C@@H](Cc1ccc(O)cc1)C(=O)N[C@@H](Cc1c[nH]c2ccccc12)C(=O)N[C@@H](CCCNC(=N)N)C(N)=O — MIC (broth microdilution; 10145): 2.5 µg/mL
N=C(N)NCCC[C@@H]1NC(=O)[C@H](CCCNC(=N)N)NC(=O)[C@@H](CCCNC(=N)N)NC(=O)[C@@H](CCCNC(=N)N)NC(=O)[C@@H](C(c2ccccc2)c2ccccc2)NC(=O)[C@@H](Cc2c[nH]c3ccccc23)NC(=O)[C@@H](C(c2ccccc2)c2ccccc2)NC1=O — MIC (ATCC 700603, ESBL SHV-18): > 64 µg/mL
CC(NC(=O)c1ccccc1)C(CCCCCCCCCCCCCCC(=O)CCCCCCCC(OC(=O)c1ccccc1)C(C)NC(=O)c1ccccc1)OC(=O)c1ccccc1 (centres unmarked) — MIC (resazurin): > 50 µM
C#CCOc1ccc(CN[C@@]2(C)C[C@H](O[C@H]3[C@H](Oc4c5cc6cc4Oc4ccc(cc4Cl)[C@@H](O)[C@@H](NC(=O)[C@@H](CC(C)C)NC)C(=O)N[C@@H](CC(N)=O)C(=O)N[C@H]6C(=O)N[C@H]4C(=O)N[C@H](C(=O)N[C@H](C(=O)NCC(N)=O)c6cc(O)cc(O)c6-c6cc4ccc6O)[C@H](O)c4ccc(c(Cl)c4)O5)O[C@H](CO)[C@@H](O)[C@@H]3O)O[C@@H](C)[C@H]2O)cc1OC — MIC (broth microdilution; ATCC 13883, cation-adjusted Mueller-Hinton broth; 18 to 20 h, 37 °C, 0.002% polysorbate 80): > 128 µg/mL
CC[C@H](C)[C@H](NC(=O)[C@H](CCCNC(=N)N)NC(=O)[C@H](CC(=O)O)NC(=O)[C@H](CCCNC(=N)N)NC(=O)[C@H](CC(C)C)NC(=O)[C@H](CC(N)=O)NC(=O)[C@H](CCCNC(=N)N)NC(=O)[C@@H](N)Cc1ccccc1)C(=O)N[C@@H](CCCCN)C(=O)N[C@@H](CC(N)=O)C(=O)N[C@@H](CCCCN)C(=O)N[C@@H](Cc1ccccc1)C(=O)N[C@@H](CCC(=O)O)C(=O)N[C@@H](CC(N)=O)C(=O)N[C@@H](C)C(=O)N[C@@H](CC(C)C)C(=O)N[C@@H](CCCCN)C(=O)N[C@@H](CC(N)=O)C(=O)N[C@H](C(=O)N[C@H](C(=O)N[C@@H](CC(N)=O)C(=O)N[C@@H](CCCCN)C(=O)N[C@@H](CC(C)C)C(=O)N[C@@H](Cc1ccccc1)C(=O)N1CCC[C@H]1C(=O)O)[C@@H](C)CC)C(C)C — MIC (broth microdilution; ATCC 43816): 20.7 µM
COc1ccc2ccc(O)c(/C=N/[C@H]3CCCC[C@H]3/N=C/c3cc(C(C)(C)C)cc(C(C)(C)C)c3O)c2c1 — MIC (bacterial growth, broth microdilution; carbapenem-resistant clinical isolate): > 40 µM
C=CCO/N=C(\C(=O)N[C@@H]1C(=O)N(OS(=O)(=O)O)C1(C)C)c1csc(N)n1 — MIC (agar dilution; 2146, NDM-1): 4 µg/mL
CC[C@H](C)[C@H](NC(=O)[C@H](CCCCN)NC(=O)[C@H](CCCCN)NC(=O)[C@H](Cc1ccccc1)NC(=O)[C@H](Cc1ccccc1)NC(=O)[C@H](CCCCN)NC(=O)[C@H](CCCCN)NC(=O)[C@H](Cc1ccccc1)NC(=O)[C@H](CCCNC(=N)N)NC(=O)[C@@H](N)CCCCN)C(=O)N[C@@H](CCCCN)C(=O)N[C@@H](CCCCN)C(=O)N[C@@H](CO)C(=O)N[C@H](C(=O)N[C@@H](CCCCN)C(=O)N[C@@H](CCCCN)C(=O)N[C@@H](CCCNC(=N)N)C(=O)N[C@H](C(=O)N[C@@H](CCCCN)C(=O)N[C@@H](CCCCN)C(=O)N[C@@H](CC(C)C)C(=O)N[C@@H](Cc1ccccc1)C(=O)N[C@@H](CCCCN)C(=O)N[C@@H](CCCCN)C(=O)N1CCC[C@H]1C(=O)N[C@@H](CCCNC(=N)N)C(=O)N[C@H](C(=O)N[C@H](C(=O)N1CCC[C@H]1C(=O)N[C@H](C(=O)N[C@@H](CO)C(=O)N[C@H](C(=O)N1CCC[C@H]1C(=O)N[C@@H](Cc1ccccc1)C(=O)O)[C@@H](C)CC)[C@@H](C)CC)[C@@H](C)CC)C(C)C)C(C)C)C(C)C — MIC (CLSI agar dilution; ATCC 13883; 20 h, 37 °C): 16 µg/mL
CC[C@H](C)[C@H](NC(=O)[C@H](Cc1c[nH]c2ccccc12)NC(=O)[C@H](CCCNC(=N)N)NC(=O)[C@@H]1CCCN1C(=O)[C@H](CCCNC(=N)N)NC(=O)[C@@H]1CCCN1C(=O)[C@H](CC(C)C)NC(=O)[C@H](Cc1ccc(O)cc1)NC(=O)[C@@H]1CCCN1C(=O)[C@@H]1CCCN1C(=O)[C@H](CCCCN)NC(=O)[C@H](CC(=O)O)NC(=O)[C@@H](N)C(C)C)C(=O)N[C@@H](CCCNC(=N)N)C(=O)N[C@H](CCCNC(=N)N)C(=O)N[C@H](C(=O)N[C@@H](Cc1ccc(O)cc1)C(=O)N[C@@H](CC(N)=O)C(=O)N[C@H](CCCNC(=N)N)C(N)=O)[C@@H](C)CC — MIC (broth microdilution; DSM 681; 18 h, 37 °C, 25% MHB2): 4 µg/mL
C#CCO/N=C(\C(=O)N[C@@H]1C(=O)N(OS(=O)(=O)O)C1(C)C)c1csc(N)n1 — MIC (agar dilution; 09-20, NDM-1): 1 µg/mL
CC[C@H](C)[C@H](NC(=O)[C@@H](CCCNC(=N)N)NC(=O)[C@H](CCCNC(=N)N)NC(=O)[C@H](CCC(=O)O)NC(=O)[C@H](Cc1c[nH]c2ccccc12)NC(=O)[C@H](CCCNC(=N)N)NC(=O)[C@@H]1CCCN1C(=O)[C@H](CCCNC(=N)N)NC(=O)[C@@H]1CCCN1C(=O)[C@H](CC(C)C)NC(=O)[C@H](Cc1ccc(O)cc1)NC(=O)[C@@H]1CCCN1C(=O)[C@@H]1CCCN1C(=O)[C@H](CCCCN)NC(=O)[C@H](CC(=O)O)NC(=O)[C@@H](N)C(C)C)C(=O)N[C@@H](Cc1ccc(O)cc1)C(=O)N[C@@H](CC(N)=O)C(=O)N[C@H](CCCNC(=N)N)C(N)=O — MIC (broth microdilution; DSM 681; 18 h, 37 °C, 25% MHB2): 8 µg/mL
COc1ccc(O)c(/C=N/[C@@H]2CCCC[C@@H]2/N=C/c2c(O)ccc3ccc(OC)cc23)c1 — MIC (bacterial growth, broth microdilution; carbapenem-resistant): > 40 µM
CC[C@H](C)[C@H](NC(=O)[C@H](C)NC(=O)[C@@H](NC(=O)[C@H](CC(=O)O)NC(=O)[C@H](CCCCN)NC(=O)[C@H](CO)NC(=O)[C@@H](NC(=O)[C@H](CC(N)=O)NC(=O)[C@H](C)NC(=O)[C@@H](NC(=O)[C@H](CCC(=O)O)NC(=O)[C@H](CCCCN)NC(=O)[C@@H](NC(=O)[C@@H](NC(=O)[C@H](Cc1c[nH]cn1)NC(=O)[C@H](CCCCN)NC(=O)[C@@H](NC(=O)[C@H](CCCCN)NC(=O)[C@H](CCCCN)NC(=O)[C@@H](NC(=O)[C@H](CC(C)C)NC(=O)[C@H](CCCCN)NC(=O)[C@H](CC(N)=O)NC(=O)[C@H](Cc1ccccc1)NC(=O)[C@H](CCCNC(=N)N)NC(=O)[C@H](CCCCN)NC(=O)[C@H](CCCNC(=N)N)NC(=O)[C@H](Cc1ccccc1)NC(=O)CN)C(C)C)C(C)C)[C@@H](C)O)[C@@H](C)CC)[C@@H](C)O)C(C)C)C(C)C)C(=O)N[C@H](C(=O)N[C@@H](C)C(=O)NCC(=O)N[C@@H](CO)C(=O)NCC(=O)N[C@H](C(=O)N[C@@H](C)C(=O)N[C@H](C(=O)NCC(=O)N[C@@H](C)C(=O)N[C@@H](C)C(=O)N[C@@H](CCSC)C(N)=O)C(C)C)C(C)C)C(C)C — MIC (broth microdilution; RKI 93/10, CAMHB with 10% mouse serum; 150 mM NaCl): 0.5 µg/mL
CCn1ccn(CC)c1=[Se] — MIC (broth microdilution; carbapenem-resistant BAA-1705; 24 h): > 40 µM
CC[C@H](C)[C@H](NC(=O)[C@@H](CCCNC(=N)N)NC(=O)[C@H](CCCNC(=N)N)NC(=O)[C@H](Cc1ccc(O)cc1)NC(=O)[C@H](Cc1c[nH]c2ccccc12)NC(=O)[C@H](CCCNC(=N)N)NC(=O)[C@@H]1CCCN1C(=O)[C@H](CCCNC(=N)N)NC(=O)[C@@H]1CCCN1C(=O)[C@H](CC(C)C)NC(=O)[C@H](Cc1ccc(O)cc1)NC(=O)[C@@H]1CCCN1C(=O)[C@@H]1CCCN1C(=O)[C@H](CCCCN)NC(=O)[C@H](CC(=O)O)NC(=O)[C@@H](N)C(C)C)C(=O)N[C@@H](Cc1ccc(O)cc1)C(=O)N[C@@H](CC(N)=O)C(=O)N[C@H](CCCNC(=N)N)C(N)=O — MIC (broth microdilution; DSM 681; 18 h, 37 °C, 25% MHB2): 4 µg/mL
CC(=O)N[C@H](Cc1ccc(C(F)(F)F)cc1)C(=O)N[C@@H](CCN)C(=O)N[C@H](C(=O)N[C@@H](CCN)C(=O)N[C@H]1CCNC(=O)[C@H]([C@@H](C)O)NC(=O)[C@H](CCN)NC(=O)[C@H](CCN)NC(=O)[C@H](CC(C)C)NC(=O)[C@@H](Cc2ccccc2)NC(=O)[C@H](CCN)NC1=O)[C@@H](C)O — MIC (broth microdilution; ATCC 13883, colistin-susceptible): 8 to 16 µg/mL

Repeated from above:
CC[C@H](C)[C@H](NC(=O)[C@H](CCCNC(=N)N)NC(=O)[C@H](CC(=O)O)NC(=O)[C@H](CCCNC(=N)N)NC(=O)[C@H](CC(C)C)NC(=O)[C@H](CC(N)=O)NC(=O)[C@H](CCCNC(=N)N)NC(=O)[C@@H](N)Cc1ccccc1)C(=O)N[C@@H](CCCCN)C(=O)N[C@@H](CC(N)=O)C(=O)N[C@@H](CCCCN)C(=O)N[C@@H](Cc1ccccc1)C(=O)N[C@@H](CCC(=O)O)C(=O)N[C@@H](CC(N)=O)C(=O)N[C@@H](C)C(=O)N[C@@H](CC(C)C)C(=O)N[C@@H](CCCCN)C(=O)N[C@@H](CC(N)=O)C(=O)N[C@H](C(=O)N[C@H](C(=O)N[C@@H](CC(N)=O)C(=O)N[C@@H](CCCCN)C(=O)N[C@@H](CC(C)C)C(=O)N[C@@H](Cc1ccccc1)C(=O)N1CCC[C@H]1C(=O)O)[C@@H](C)CC)C(C)C — MIC (broth microdilution; ATCC 43816): 20.7 µM
COc1ccc2ccc(O)c(/C=N/[C@H]3CCCC[C@H]3/N=C/c3cc(C(C)(C)C)cc(C(C)(C)C)c3O)c2c1 — MIC (bacterial growth, broth microdilution; carbapenem-resistant clinical isolate): > 40 µM
